Measurements gathered from unrelated publications.
Organism: Escherichia coli

SMILES | assay | test system | setting | scale | MIC
COc1c(C(=O)Nc2ccc(C(=O)O)cc2)ccc2nc(-c3cc(NC(=O)C(CC(N)=O)NC(=O)c4ccc(NC(=O)c5ccc(C#N)cc5)cc4)cn3C)[nH]c12 (centres unmarked) |  | K12 ΔtolC |  |  | > 64 µg/mL
CN1C(=O)Cc2ccc(F)c(CNCCCC3CN(c4ccc5c(n4)NC(=O)CO5)C(=O)O3)c21 (centres unmarked) |  | ATCC 25922 |  |  | 0.25 µg/mL
CC[C@H](C)[C@H](NC(=O)CNC(=O)[C@H](CC(=O)O)NC(=O)[C@H](CCCNC(=N)N)NC(=O)[C@@H](NC(=O)[C@H](CC(N)=O)NC(=O)[C@H](CCCNC(=N)N)NC(=O)CNC(=O)[C@@H](NC(=O)[C@H](CCCCN)NC(=O)[C@H](CCC(=O)O)NC(=O)[C@@H](NC(=O)[C@H](CCCCN)NC(=O)[C@H](CCCCN)NC(=O)[C@H](Cc1ccccc1)NC(=O)[C@@H](NC(=O)[C@H](CCC(=O)O)NC(=O)[C@H](Cc1c[nH]c2ccccc12)NC(=O)[C@@H](N)CCCNC(=N)N)[C@@H](C)CC)[C@@H](C)CC)C(C)C)C(C)C)C(=O)N[C@H](C(=O)N[C@@H](CCCCN)C(=O)N[C@@H](C)C(=O)NCC(=O)N1CCC[C@H]1C(=O)N[C@@H](C)C(=O)N[C@H](C(=O)N[C@@H](C)C(=O)N[C@H](C(=O)N[C@H](C(=O)NCC(=O)N[C@@H](CCC(N)=O)C(=O)N[C@@H](C)C(=O)N[C@@H](C)C(=O)N[C@H](C(=O)N[C@H](C(=O)N[C@H](C(=O)N[C@@H](CCCCN)C(N)=O)C(C)C)C(C)C)[C@@H](C)O)C(C)C)C(C)C)C(C)C)[C@@H](C)CC |  | KCTC 1682, Mueller-Hinton broth | 16 h, 37 °C | growth inhibition over 99% | 32 µM
CC1(C)SC2C(NC(=O)C(NC(=O)C3=C(O)C(Cc4ccc(F)cc4)NC3=O)c3ccccc3)C(=O)N2C1C(=O)O (centres unmarked) | broth microdilution | Keio mutant JW5195-1 | 18 h |  | 25 µg/mL
O=C(O)c1cccc(C(=O)O)n1 |  | NDM-1 producer | 32 µg/mL, MIC of meropenem, added: meropenem |  | 0.25 µg/mL
CC(C)C[C@@H](NC(=O)CNC(=O)[C@@H](CCCCN)NC(=O)[C@@H](CC(C)C)NC(=O)[C@@H](CCCCN)NC(=O)[C@@H](CCCNC(=N)N)NC(=O)[C@@H](CC(C)C)NC(=O)[C@@H](CC(C)C)NC(=O)[C@@H](CCCNC(=N)N)NC(=O)[C@H](N)CCCNC(=N)N)C(=O)N[C@H](CCCCN)C(=O)N[C@H](CCCCN)C(=O)N[C@H](Cc1ccc(O)cc1)C(=O)N[C@H](CC(C)C)C(=O)N[C@H](Cc1ccc(O)cc1)C(=O)N[C@H](Cc1ccccc1)C(=O)N[C@H](CCCCN)C(=O)N[C@H](CC(C)C)C(=O)N[C@H](CCC(N)=O)C(=O)N[C@H](CC(C)C)C(=O)N[C@H](CC(C)C)C(=O)N[C@H](CCCCN)C(=O)N[C@H](CCCCN)C(N)=O | broth microdilution | KCTC 1682, Mueller-Hinton broth | 24 h, 37 °C |  | 2 µM
CC1(C)SC2C(NC(=O)C(NC(=O)C3=C(O)C4CCCN4C3=O)c3ccccc3)C(=O)N2C1C(=O)O (centres unmarked) | broth microdilution | ATCC 35218, low-level TEM-1 | no clavulanic acid |  | > 200 µg/mL
CC(=O)Nc1ccc(/C=N/NC(=O)c2ccc(NC(=O)c3ccc(N4C(=O)C[C@H](NC(=O)c5ccc(NC(=O)c6ccc(C#N)cc6)cc5)C4=O)cc3)c(OC(C)C)c2O)cc1 |  | BW25113 | 18 h, 37 °C, dark-adapted state |  | 0.04 µg/mL
C[C@@H](O)[C@H]1C(=O)N2C(C(=O)O)=C(S[C@@H]3CN[C@H](C(=O)N(C)C)C3)[C@H](C)[C@H]12 |  | DH5α cloned blaKPC-144 |  |  | 0.5 µg/mL
CC[C@H](C)[C@H](NC(=O)[C@H](CC(C)C)NC(=O)[C@H](CCCNC(=N)N)NC(=O)[C@@H](N)CCCNC(=N)N)C(=O)N[C@@H](CCCNC(=N)N)C(=O)N[C@@H](CCCCN)C(=O)N[C@@H](CC(C)C)C(=O)N[C@@H](CCCCN)C(=O)NCC(=O)N[C@@H](CC(C)C)C(=O)N[C@@H](CCCCN)C(=O)N[C@@H](CCCCN)C(=O)N[C@@H](Cc1ccc(O)cc1)C(=O)N[C@@H](CC(C)C)C(=O)N[C@@H](Cc1ccc(O)cc1)C(=O)N[C@@H](Cc1ccccc1)C(=O)N[C@@H](CCCCN)C(=O)N[C@@H](CC(C)C)C(=O)N[C@@H](CCC(N)=O)C(=O)N[C@@H](CC(C)C)C(=O)N[C@@H](CC(C)C)C(=O)N[C@@H](CCCCN)C(=O)N[C@@H](CCCCN)C(N)=O |  | KCTC 1682, Mueller-Hinton broth | added: 2.5 mM CaCl2 |  | 16 µM
CCCCCC(=O)N[C@@H](CCCNC(=N)N)C(=O)N[C@@H](CCCNC(=N)N)C(=O)N[C@@H](CCCNC(=N)N)C(=O)N[C@@H](CCCNC(=N)N)C(=O)N[C@H](C(=O)N[C@@H](CC(C)C)C(=O)N[C@H](C(=O)N[C@@H](CCCCN)C(=O)N[C@@H](CCCCN)C(=O)N[C@H](C(=O)N[C@@H](CC(C)C)C(=O)N[C@@H](CCCCN)C(=O)N[C@@H](CC(C)C)C(=O)N[C@@H](CCCCN)C(=O)N[C@@H](CO)C(=O)N[C@@H](CO)C(=O)N[C@@H](C)C(=O)N[C@@H](Cc1ccc(O)cc1)C(N)=O)C(C)C)[C@@H](C)CC)[C@@H](C)CC | checkerboard |  | 24 h, 37 °C, alone, azithromycin plate |  | 32 µM
CC[C@H](C)[C@H](N)C(=O)N[C@@H](CC(C)C)C(=O)NCC(=O)N[C@H](CCCNC(=N)N)C(=O)N[C@H](C(=O)N[C@@H](Cc1c[nH]c2ccccc12)C(=O)N[C@@H](CCCCN)C(=O)NCC(=O)N[C@H](C(=O)N[C@@H](CCCCN)C(=O)N[C@@H](CC(=O)O)C(=O)N[C@H](C(=O)N[C@@H](CC(C)C)C(N)=O)[C@@H](C)CC)[C@@H](C)CC)[C@@H](C)CC | broth microdilution | ATCC 25922 | added: NaCl 150 mM |  | 12.5 µM
CCN1CCN(C(=O)N[C@@H](C(=O)N[C@@H]2C(=O)N3[C@@H]2SC(C)(C)[C@@H]3C(=O)O)c2ccccc2)C(=O)C1=O |  |  |  |  | 500 µg/mL
C[C@@H](O)[C@H]1C(=O)N2C(C(=O)O)=C(S[C@@H]3CN[C@H](C(=O)N(C)C)C3)[C@H](C)[C@H]12 |  | DH10B expressing IMP-1/pBCSK+ |  |  | 2 µg/mL
CC[C@H](C)[C@H](NC(=O)CNC(=O)[C@H](CC(=O)O)NC(=O)[C@H](C)NC(=O)[C@@H](NC(=O)[C@H](CC(N)=O)NC(=O)[C@H](CCCNC(=N)N)NC(=O)CNC(=O)[C@@H](NC(=O)[C@H](CCCCN)NC(=O)[C@H](CCC(=O)O)NC(=O)[C@@H](NC(=O)[C@H](CCCCN)NC(=O)[C@H](CCCCN)NC(=O)[C@H](Cc1ccccc1)NC(=O)[C@@H](NC(=O)[C@H](CCCCN)NC(=O)[C@H](Cc1c[nH]c2ccccc12)NC(=O)[C@@H](N)CCCNC(=N)N)[C@@H](C)CC)[C@@H](C)CC)C(C)C)C(C)C)C(=O)N[C@H](C(=O)N[C@@H](CCCCN)C(=O)N[C@@H](C)C(=O)NCC(=O)N1CCC[C@H]1C(=O)N[C@@H](C)C(=O)N[C@H](C(=O)N[C@@H](C)C(=O)N[C@H](C(=O)N[C@H](C(=O)NCC(=O)N[C@@H](CCC(N)=O)C(=O)N[C@@H](C)C(=O)N[C@@H](C)C(=O)N[C@H](C(=O)N[C@H](C(=O)N[C@H](C(=O)N[C@@H](CCCCN)C(N)=O)C(C)C)C(C)C)[C@@H](C)O)C(C)C)C(C)C)C(C)C)[C@@H](C)CC |  | K1 ATCC 700973, Mueller-Hinton broth | 16 h, 37 °C | growth inhibition over 99% | 2 µM
CC[C@H](C)[C@H](N)C(=O)N[C@@H](CC(C)C)C(=O)N1CCC[C@H]1C(=O)N[C@@H](Cc1c[nH]c2ccccc12)C(=O)N[C@@H](CCCCN)C(=O)N[C@@H](Cc1c[nH]c2ccccc12)C(=O)N1CCC[C@H]1C(=O)N[C@@H](Cc1c[nH]c2ccccc12)C(=O)N[C@@H](Cc1c[nH]c2ccccc12)C(=O)N1CCC[C@H]1C(=O)N[C@@H](Cc1c[nH]c2ccccc12)C(=O)N[C@@H](CCCNC(=N)N)C(=O)N[C@@H](CCCNC(=N)N)C(N)=O | broth dilution | K12 BW25113 | 18 h, 37 °C |  | 4.6 µM
NC(=O)[C@@H]1CC[C@@H]2CN1C(=O)N2OS(=O)(=O)O | broth microdilution | ATCC 2469, NDM-positive | compound alone |  | 16 µg/mL
CC[C@H](C)[C@H](NC(=O)[C@H](CCCNC(=N)N)NC(=O)[C@H](CCCCN)NC(=O)[C@H](CC(C)C)NC(=O)[C@H](CCCCN)NC(=O)[C@H](CCCCN)NC(=O)CNC(=O)[C@H](Cc1ccccc1)NC(=O)[C@H](CC(N)=O)NC(=O)[C@H](CCCNC(=N)N)NC(=O)[C@@H](N)CC(C)C)C(=O)NCC(=O)N[C@@H](CCCCN)C(=O)N[C@@H](Cc1ccc(O)cc1)C(=O)N[C@H](C(=O)N[C@@H](CCCNC(=N)N)C(=O)N[C@@H](CC(N)=O)C(=O)N[C@H](C(=O)N[C@@H](C)C(=O)N[C@@H](CCC(N)=O)C(=O)N[C@@H](CCCCN)C(=O)N[C@H](C(=O)N[C@H](C(=O)N[C@H](C(=O)N[C@H](C(=O)N[C@@H](C)C(=O)N[C@@H](CCC(N)=O)C(=O)NCC(=O)N[C@@H](C)C(=O)N[C@@H](C)C(=O)NCC(=O)N[C@H](C(=O)N[C@@H](C)C(=O)N[C@@H](CCCCN)C(=O)O)C(C)C)C(C)C)[C@@H](C)O)C(C)C)C(C)C)C(C)C)[C@@H](C)O | broth microdilution | K88, Mueller-Hinton broth | 37 °C |  | 1.2 µM
CC[C@H](C)[C@H](NC(=O)CN)C(=O)N[C@@H](C)C(=O)N[C@@H](CCCCN)C(=O)N[C@@H](C)C(=O)N[C@H](C(=O)N[C@@H](CCCCN)C(=O)N[C@@H](CCCCN)C(=O)N[C@H](C(=O)N[C@@H](C)C(=O)N[C@@H](CCCCN)C(=O)N[C@@H](C)C(=O)N[C@@H](CC(C)C)C(=O)NCC(N)=O)[C@@H](C)CC)[C@@H](C)CC |  | ATCC 25922, Mueller-Hinton broth | 12 h, 37 °C |  | 2 µg/mL
CCCCCCC/C=C/C(=O)N1C(=O)/C(=C(\O)c2ccc(OCOCCOC)cc2)C(=O)C1CC(C)C (centres unmarked) |  | K12 ΔtolC |  |  | 3.13 µg/mL
